Published values collected from several papers.
Parts stem from different laboratories: compare values within a part only.

Block 1
Target: Ras GTPase-activating protein-binding protein 1, RRM domain (G3BP1, Homo sapiens, UniProt Q13283)
UniProt Q13283, sequence (whole entry, looked up): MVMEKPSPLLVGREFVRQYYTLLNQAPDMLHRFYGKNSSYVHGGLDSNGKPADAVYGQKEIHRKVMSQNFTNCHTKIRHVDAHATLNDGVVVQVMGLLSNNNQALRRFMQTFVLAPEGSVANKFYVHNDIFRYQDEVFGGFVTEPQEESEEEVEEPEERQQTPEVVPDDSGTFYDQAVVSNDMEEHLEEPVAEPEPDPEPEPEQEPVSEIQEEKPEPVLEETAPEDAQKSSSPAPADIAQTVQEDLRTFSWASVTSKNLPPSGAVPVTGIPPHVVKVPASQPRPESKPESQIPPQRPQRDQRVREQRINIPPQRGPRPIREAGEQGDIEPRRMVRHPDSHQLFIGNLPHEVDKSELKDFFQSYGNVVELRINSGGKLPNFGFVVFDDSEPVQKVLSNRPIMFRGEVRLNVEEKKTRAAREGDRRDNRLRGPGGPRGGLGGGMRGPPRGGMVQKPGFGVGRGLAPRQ
Method: RNA Bind-n-Seq
Form: RNA
Medium: in vitro
Tested at: 1 µM
Notes: whole 134-nt RNA, ends assumed
Together with: 150 mM KCl
Reference: input library
Reading: higher = stronger binding
Endpoint: log2 enrichment
Constant ends, left off below: GGGAGUUCUACAGUCCGACGAUC … UGGAAUUCUCGGGUGUCAAGG
UCCUGUGCUACACAUCGUAUGUACCGAAUCGGCCCCCCGGGGCCCCCCGGCCCCCCGGGGAAAGUAUUAUGUUACGCCGUUCGGAUCUGC: -0.493
ACCAUGCAGGUGGGCAUCUUUGGGAAGUGGGGCAAGGGGGGGAUAGGGAGGGGGGUAACACUUUGGGAACAGGUAAACCCAGGUCGUUUC: -0.619
CUCAAGUCCUGUGCUACACAUCGUAUGUACCGAAUCGGGUUUGGGUGGGAGGGAAAGUAUUAUGUUACGCCGUUCGGAUCUGCACUUCCA: 1.21
UCCUCAAGUCCUGUGCUACACAUCGUAUGUACCGAAUCGGGAGGAGGAGGGAAAGUAUUAUGUUACGCCGUUCGGAUCUGCACUUCCAGC: -0.311
UGGCCCUGGUGGAAUGCGGGGAGGAAGAGGUGGCCUCAUGGAUCGUGGUGGUCCCGGUGGAAUGUUCAGAGGUGGCCGUGGUGGAGACAG: 0.834
GAAAUACCAUCGGAAGACGAUGGGACGGUGCUGCUCUCCACGGUUACAGCCCAGUUUCCAGGGGCGUGUGGGCUUCGCUACAGGAAUCCA: -0.259
GCAGGAAGUAAAAACAAAUGGAAAUGCUUCGGAUAGUGCCAGGGGUGGGGGUUGCUAAGGAAAGGGUGGGAUGGGAGUGGGUAAAGAGUU: 0.83
UGGGAGGUGGAUUUUGUUUAUUUUUUUAGCUCAUUUCCAUGGGUGGGAAUUUUUUUUUAAUAUGUGUCAUGAAUAAAGUUGUUUUUGAAA: 1.59
AAGUCCUGUGCUACACAUCGUAUGUACCGAAUCGGGUUUGGGUUUUUUUGGGUGGGAAAGUAUUAUGUUACGCCGUUCGGAUCUGCACUU: 0.513
AGUCCUGUGCUACACAUCGUAUGUACCGAAUCGGGAAAAAAAGGGUGGGAAAAAGGGAAAGUAUUAUGUUACGCCGUUCGGAUCUGCACU: 0.591
UCAAGUCCUGUGCUACACAUCGUAUGUACCGAAUCGGUUUUUGGUUUGGAAAGGAAAGUAUUAUGUUACGCCGUUCGGAUCUGCACUUCC: -0.212
UCAAGUCCUGUGCUACACAUCGUAUGUACCGAAUCGGAAAGGAAAAAGGUUUGGAAAGUAUUAUGUUACGCCGUUCGGAUCUGCACUUCC: -0.123
UUUCAGGGGAGCUCUUUGCUCAGGCCCCGGUGGAUCAGUUUCCUGGCACAGCUGUGGAGAGUGUGACGGAUUCCAGCAGGUACUUCGUGA: -0.382
GCAGGAAGUAAAAACAAAUGGAAAUGCUUCGGAUAGUGGCAGGGGUGGGGGUUGCUAAGGAAUGGGUGGGAUGGGAGUGGGUAAAGAGUU: 0.844

Block 2
Target: Hepatocyte nuclear factor 3-alpha (Foxa1, Mus musculus, UniProt P35582, residues 1-468, full length assumed)
UniProt P35582, sequence (whole entry, looked up): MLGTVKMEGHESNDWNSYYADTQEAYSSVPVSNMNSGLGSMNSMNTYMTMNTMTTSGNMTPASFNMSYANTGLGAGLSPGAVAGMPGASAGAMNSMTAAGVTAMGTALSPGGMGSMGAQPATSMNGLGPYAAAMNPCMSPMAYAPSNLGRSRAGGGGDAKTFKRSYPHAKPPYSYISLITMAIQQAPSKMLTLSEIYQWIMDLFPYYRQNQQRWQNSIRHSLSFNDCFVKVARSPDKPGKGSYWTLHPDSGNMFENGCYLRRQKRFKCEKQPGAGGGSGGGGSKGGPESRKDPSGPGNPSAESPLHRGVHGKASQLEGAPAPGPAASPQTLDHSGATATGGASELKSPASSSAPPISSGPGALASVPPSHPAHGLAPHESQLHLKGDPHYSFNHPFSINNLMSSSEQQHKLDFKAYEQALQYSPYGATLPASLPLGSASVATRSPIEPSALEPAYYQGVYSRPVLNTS
Method: EMSA with sequencing
Form: double-stranded DNA, one strand shown
Medium: in vitro
Tested at: 10 and 20 nM
Notes: whole designed probe, mean of two concentrations, ends assumed
Reference: negative control set to 0
Reading: higher = stronger binding
Endpoint: normalised bound fraction
Constant ends, left off below: GTGAGCGGTGCCCATTGATGGGGAAC … TTTCACTGGGATCGTGGGGAC
AGGTGAATTGGCTGCTTCCATCCTGGCTTGGAACTTCAGACATAGAAGCCTTGGGACTTTCTCTGACTCATGCCAGGACTTTCTCCAGATGCTTGTTTGCTGAATCTCTGTGGATCACGTGACCTTAGCCAGGGATGTTGGTGAAACTGTGTGTTGGTCTAGGTACCTAGCCCATGCTAGGTGCTCATCGAAT: 0.0607 ratio
ATCTTCCCCCTCTTCCTTGCCCCACCAGCTCACCTACGGGGGTTATTTGCACAAAGGAAAATAAATAAAGCCGGCATTCGTTAACCCTCTTCTGGCGCAAACTGCTGTTTGCTCTGGATGAATCATGGTCCTTTGGCGAGGCGTGGCTCCGGGAGAGCAAAGCACCGTGTCAGGGCCATGATCCGGGCTCGCC: 0.38 ratio
ATCTTCCCCCTCTTCCTTGCCCCACCAGCTCACCTTCCCGGGTCAAAGTAAACAAGTGTTTACTTTGAAGCCGGCATTCGTTAACCCTCTTCACGCGCATACTGCTGTTTGCTCTGGATCTAACATGGTCCTTTGGCGACGCCAGGCTCCGGGAGAGCAAAGCACCGTGTCAGGGCCATGATCCGGGGTGGCC: 0.454 ratio
GAGCAGGTGGGATAGGGCACCAGCTTTGTGATTATGCTGGTTTGTTTACAGTTGTGTCCTGCCACTGTTAATAATGGCAAATGAAACAAACAATGTAAACACAGACTTCTTTTTGTTTTTCATAATCTGAGAAGGTGGTTAGTTCTTAGGTCAGGTCAGTTTCACCAATCTAAGGAGTTTTTTTCCTATTTTT: 0.473 ratio
ATCTTCCCCCTCTTCCTTGCCCCACCAGCTCACCTTCCCGGGTTATTTGCAGATAGGAAAATAAATAAAGCCGGCATTCGTTAACGCAGTTCACGCGCATACTGCTGTTTGCTCTGGATCTAACATGGTCCTTTGGCGAGGCGTGGCTCCGGGAGAGCAAAGCACCGTGTCAGGGCCATGATCCGGGGTGGCC: 0.352 ratio
TCTCCCCGTGTGGCATCAAGGCGGGCTCCCTATAGGAGCTGGTGTGGACGTCCGGGCGTGGGGTTAGGGCGGATGCGGGGATGGCCGGGCGGGTGTTGACATTGTGCTCTCACCAGGCGGATCGCCCCGACCCTCACTCCTGGCGTCTGAGTCTCTGGCGTAGCCCATGCTGAGTGGGCGGCTGGTCCTGGGT: 0.136 ratio
TTTCCAGCCCTTAGTTTCTGGCATTTAACCTGACTCTGGTCCCTGAATGGCATGGGAGTGCTTTCAACCACAGGTTTCCACATTCATGCAAAAGCAAACAAGTGCTGACTCATTCTGATCTACAGAGATCTTTATTTGCTTTGTGTTTCCAATGGAGAAAGAGCTTGGGAAGGGAGGATCCTAATTGTCTAAA: 0.484 ratio
CTAGCTCCAGTCTTAGCATGGCAATTTCTTCCCGCAACGTACTATTTTCATGCAAGACGTCTTTTTCTTTCTTACAACTAAGAGAAAGCTAAGTAAACAAAGAGAACTTTTAGTTAGCACTCAATAGATTGACATATCATGATTTCTTCTGAAATTCAAAAATAACATGTATTTGTATAATGAAAGAATCCCC: 0.504 ratio

Block 3
Target: Transcription factor SOX-2, HMG box (SOX2, Homo sapiens, UniProt P48431, residues 19-118)
UniProt P48431, sequence (19-118, looked up): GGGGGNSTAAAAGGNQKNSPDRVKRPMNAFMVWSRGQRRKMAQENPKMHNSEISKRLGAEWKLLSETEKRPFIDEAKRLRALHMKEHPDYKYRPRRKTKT
Method: protein-binding microarray
Form: double-stranded DNA, one strand shown
Medium: in vitro
Tested at: not given
Notes: k-mer, scored over probes, only values ≥0.25
Reading: higher = stronger binding
Endpoint: E-score
ATTTCAA: 0.279
ATAATAT: 0.386
AACATTG: 0.283
GAAACAA: 0.287
AACAATG: 0.478
ATTGATC: 0.323
ATAAAAA: 0.345
ATTATTA: 0.43
ATTATGA: 0.367
ATAATAG: 0.418
CATAATA: 0.355
CAATGAG: 0.358
CATTGAC: 0.364
ACAATCG: 0.371
ATAATGA: 0.396
AAAATTC: 0.257
TAATTCA: 0.427
AATTTGA: 0.36
CAAATTG: 0.331
CCCATTC: 0.274
ACAAATA: 0.331
CAATTCC: 0.277
AATAGGC: 0.277
CATTCAG: 0.36
ATAATGC: 0.309

Block 4
Target: RNA binding protein fox-1 homolog 2, RRM domain, GST-SBP tag (RBFOX2, Homo sapiens, UniProt O43251-10, residues 100-194)
Method: RNA Bind-n-Seq
Form: RNA
Medium: in vitro
Tested at: 365 nM
Notes: natural RNA segment, single round, ends assumed
Reference: no-protein control
Reading: higher = stronger binding
Endpoint: RBNS enrichment (R)
Constant ends, left off below: GGGAGUUCUACAGUCCGACGAUC … UGGAAUUCUCGGGUGCCAA
Construct (chain): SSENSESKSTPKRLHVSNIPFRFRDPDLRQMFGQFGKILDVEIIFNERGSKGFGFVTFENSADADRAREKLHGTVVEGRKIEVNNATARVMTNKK
CCCACUGCACCGCCAUUUCUUCCCAGAUUUAUGUGUAUAACUUAAACUGGAAAAAAAGAAAAAGAAAAAUAUGACUAUUAGAUUUCCAGGUAUAGAACUGUGUUCUUUGA: 0.459
UGAAUUCUAUGUGAAAUGUGUUAGGAUAAGUUUGCUCUGUCUCUAGAGUUCAAUGUAGAAGAUAAUUAAGAGGUAAAAUAUGAAGCUUAUCAUACACUAAAGGAGAAUAU: 0.948
CCCCAGGAGCACAGGUCUCUCCGGGCCGCUGUCCUGCGUAACUGUUCUCCAGAGCGCCAGCCAGCCACGGGCCUGAUUCCAGAGGAGCCGAACUGACAGGACACAGCAGG: 0.336
GGAAAACAAUUUUUUCAGAGAAUGUAUUUUUGUGCAGAAUUGCACAGAAUUCUAGAGACAGCGUUGUUCGGCAUCAAGGCAAAAGCCCACCUUUGCUUUUUAUGGAAAGC: 1.66
ACCUAAAACUGUUGAGCAGGUUGCGAUGAGGAGCACAGGGCUAGCUGCAGAGCUGGAUCCUCAGGAGGAUAGCGAAUUAUUUUCAACCCUGGAAUAGAAACCACACACUG: 0.347
CUCUCCCUCCUCCGGCUGUGACUGGCAGAUUGUCACCACAGUAGAGAACCUUUCCCCUGUACUUUUCUUUGGCCCCAUUGUUUAAAAGGGGAAAAUGGCCUUUUUAAACC: 1.1
UUCAUGGUGCUGUCCCGCCGGAGGAGGCCAUCCAUCCGUCCCUGGGAUGCAACAUGGGGUCCCAAUGCCUGAGGAGAAGACCCCCCCCCAAGGCUGACUCGCUUUCACCA: 0.52
ACCCAGAAAUGGAGCCCGGAGCCCAAUUCCAGAGAGGAAGGGAAAGAAGAGACGAUGCCUGGACAAUGUCUUAUACAUAGGGAACAGAGAGGGAAUCAGAGGUGGCUUAG: 0.49
GAGGCACCAGUGUCCUCCCCUCAAGGACAAAGUCUCCAGCCCACGUUCUCUCUGCCUGUGAGCCAGUCUAGUUCCUGAUGACCCAGGCUGCCUGAGCACCUCCCAGCCCC: 0.346
ACAGAACUCCAUUCUAAAACCAUGCAAUGUAAUGAGAACAGAGAUCUUUCCUUUUUAAUGAAAACAUUAGCAUGUUAAUACCCCGUAUGAAUAAUGCCUGACAUUCAACA: 1.89
UAUCCUUUCUCAUGGAAGCGCGUACCCGUUCGUGGAGGAAACGGAACGGCAGCCCAGCCGUGGGACGGACGUGGACGUUUACUGCAUUCCUGUUUGCCGUGUAAAUGUUA: 1.51
UAAUAGCGAGUUUCUGGCCCCUGGGCAAUUUUGUACCUUGUAAUUAUCCUAUGGUGAUGCUGUUUCUCGUUGCUAAUGGCAUUAGUGCCCCUGUAUCCUAGUGAUAACUC: 0.781
